Values quoted from earlier work, collected from citations in different studies.
Protocols differ between the studies behind these lines. ± gives the spread as reported.

| SMILES | test | system | setting | how to read | Cmax |
| --- | --- | --- | --- | --- | --- |
| C[C@H]1Oc2cc(cnc2N)-c2c(nn(C)c2C#N)CN(C)C(=O)c2ccc(F)cc21 |  | human patients, plasma | dose not given |  | 1470 nM |
| CCCCC[C@H](O)/C=C/[C@@H]1[C@H]2C/C(=C/CCCC(=O)O)O[C@H]2C[C@H]1O |  | human, plasma | concentration not given, total plasma concentration |  | 0.99 nM |
| C[C@@H]1CN(c2c(F)c(N)c3c(=O)c(C(=O)O)cn(C4CC4)c3c2F)C[C@H](C)N1 |  | human, plasma | concentration not given, highest clinical total |  | 9680 nM |
| C/C=C1\NC(=O)[C@H]2CSSCC/C=C/[C@H](CC(=O)N[C@H](C(C)C)C(=O)N2)OC(=O)[C@H](C(C)C)NC1=O |  | human, plasma | intravenous infusion, 1 to 24.9 mg/m2, 4 h infusion |  | 70 to 1020 nM |
| CC(C)(C)c1ccc(C(O)CCCN2CCC(C(O)(c3ccccc3)c3ccccc3)CC2)cc1 (centres unmarked) |  | human, plasma | concentration not given, highest clinical total |  | 120 nM |
| CC(=O)c1c(C)c2cnc(Nc3ccc(N4CCNCC4)cn3)nc2n(C2CCCC2)c1=O |  | human patients, plasma | oral, 125 mg once daily, steady state, fasted, geometric mean |  | 94.9 ng/mL |
| O=C1CC(c2ccc(O)cc2)Oc2cc(O)cc(O)c21 (centres unmarked) | refers to: total incl. conjugates | human, plasma | oral, 135 mg |  | 2000 ± 770 ng/mL |
| NC(=O)N1c2ccccc2CC(=O)c2ccccc21 |  | human, plasma | 600 mg twice daily |  | 8440 nM |
| COc1cc(Nc2ncc3c(n2)-c2ccc(Cl)cc2C(c2c(F)cccc2OC)=NC3)ccc1C(=O)O |  | human adults | oral, 50 mg enteric-coated tablet |  | 2900 nM |
| O=C1Cc2cc(CCN3CCN(c4nsc5ccccc45)CC3)c(Cl)cc2N1 |  | human, plasma | concentration not given, highest clinical total |  | 228 nM |
| NCCN[C@H]1CC[C@H](CC(=O)N[C@H]2Cc3cccc(C(=O)O)c3OB2O)CC1 |  | human, plasma | intravenous infusion, 500 mg over 2 h every 8 h, after 10 days, without cefepime |  | 26500 ng/mL |
| COc1cc2nc(N(C)CCCNC(=O)C3CCCO3)nc(N)c2cc1OC (centres unmarked) |  | human, plasma | concentration not given, total concentration |  | 32 nM |
| CC(C)NCC(O)COc1cccc2ccccc12 (centres unmarked) |  | human, plasma | concentration not given, highest clinical total |  | 220 nM |
| C[C@@H]1C[C@H]2[C@@H]3CCC4=CC(=O)C=C[C@]4(C)[C@@]3(F)[C@@H](O)C[C@]2(C)[C@@]1(O)C(=O)CO |  | human, plasma | concentration not given, total concentration |  | 160 nM |
| CO[C@H]1C[C@@H]2CC[C@@H](C)[C@@](O)(O2)C(=O)C(=O)N2CCCC[C@H]2C(=O)O[C@H]([C@H](C)C[C@@H]2CC[C@@H](OC(=O)C(C)(CO)CO)[C@H](OC)C2)CC(=O)[C@H](C)/C=C(\C)[C@@H](O)[C@@H](OC)C(=O)[C@H](C)C[C@H](C)/C=C/C=C/C=C/1C |  | human | intravenous, 25 mg once weekly, day 7 or 28 |  | 595 ± 102 ng/mL |
| Cc1c(C)c2c(c(C)c1O)CCC(C)(COc1ccc(CC3SC(=O)NC3=O)cc1)O2 (centres unmarked) |  | human, plasma | oral, 400 mg single dose |  | 3000 nM |
| COc1cccc(CCc2ccccc2OCC(CN(C)C)OC(=O)CCC(=O)O)c1 (racemic) |  | human | oral, 400 mg single dose as hydrochloride, geometric mean |  | 1820 ng/mL |
| O=C(NCC1CCCCN1)c1cc(OCC(F)(F)F)ccc1OCC(F)(F)F (centres unmarked) |  | human, plasma | concentration not given, total concentration |  | 930 nM |
| CN1CCN(c2ccc3nc(-c4c(N)c5c(F)cccc5[nH]c4=O)[nH]c3c2)CC1 |  | human | oral, 500 mg, 5 days on 2 days off, day 1, 24 h |  | 180 to 487 ng/mL |

| SMILES | test | system | setting | how to read | Cmax |
| --- | --- | --- | --- | --- | --- |
| CC(C)(C)NC(=O)[C@H]1CC[C@H]2[C@@H]3CC[C@H]4NC(=O)C=C[C@]4(C)[C@H]3CC[C@]12C |  | human, plasma | concentration not given, total concentration |  | 220 nM |
| Cn1c(=O)c2c(ncn2C)n(C)c1=O |  | human, plasma | oral, 315 to 530 mg/day |  | 52000 nM |
| COc1cccc(CCc2ccccc2OC[C@H](O)CN(C)C)c1 (racemic) |  | human | oral, 100 mg sarpogrelate hydrochloride, single dose, geometric mean |  | 47.6 ng/mL |
| C=CC[C@@H]1/C=C(\C)C[C@H](C)C[C@H](OC)[C@H]2O[C@@](O)(C(=O)C(=O)N3CCCC[C@H]3C(=O)O[C@H](/C(C)=C/[C@@H]3CC[C@@H](O)[C@H](OC)C3)[C@H](C)[C@@H](O)CC1=O)[C@H](C)C[C@@H]2OC |  | human, plasma | concentration not given, total concentration |  | 83 nM |
| CCc1ccc(CCOc2ccc(CC3SC(=O)NC3=O)cc2)nc1 (centres unmarked) |  | human, plasma | oral, 45 mg single dose |  | 4500 nM |
| CCOC(=O)C1=C[C@@H](OC(CC)CC)[C@H](NC(C)=O)[C@@H](N)C1 |  | human adult, plasma | 75 mg twice daily, 5 days, steady state |  | 186 nM |
| O=C(Nc1nc2cccc(-c3ccc(CN4CCS(=O)(=O)CC4)cc3)n2n1)C1CC1 |  | human, rheumatoid arthritis patients, plasma | 200 mg once daily, steady state |  | 5100 nM |
| O=C(CCCCCCC(=O)Nc1ccccc1)NO |  | human | oral, 400 mg/day |  | 1000 to 1500 nM |
| CC(C)C[C@H](NC(=O)[C@H](Cc1ccccc1)NC(=O)c1cnccn1)B(O)O |  | human, plasma | concentration not given, total concentration |  | 1300 nM |
| O=C(/C=C/c1cccc(S(=O)(=O)Nc2ccccc2)c1)NO |  | human, plasma | intravenous infusion, 600 to 1400 mg/m2, 30 min infusion |  | 88100 to 183000 nM |
| CC[C@H](C)C(=O)O[C@H]1C[C@@H](C)C=C2C=C[C@H](C)[C@H](CC[C@@H]3C[C@@H](O)CC(=O)O3)[C@H]21 |  | human, plasma | 40 mg daily |  | ~50 nM |
| CC/C(=C(\c1ccccc1)c1ccc(OCCN(C)C)cc1)c1ccccc1 |  | human, plasma | concentration not given, highest clinical total |  | 493 nM |
| N#CC[C@H](C1CCCC1)n1cc(-c2ncnc3[nH]ccc23)cn1 |  | human, plasma | dose not given |  | 1510 nM |
| C#Cc1cccc(Nc2ncnc3cc(OCCOC)c(OCCOC)cc23)c1 |  | human | oral, 150 mg once daily, day 28, 24 h |  | 2530 ± 1190 ng/mL |
| Cc1ccc(/C=C2/C(=O)C3(C)CCC2C3(C)C)cc1 (centres unmarked) |  | human, female, plasma | dermal, 22 mg/kg, sunscreen 4% compound | geometric mean | 25.5 ng/mL |
| CC(=O)[C@]1(O)Cc2c(O)c3c(c(O)c2[C@@H](O[C@H]2C[C@H](N)[C@H](O)[C@H](C)O2)C1)C(=O)c1ccccc1C3=O |  | human, plasma | concentration not given, total concentration |  | 88 nM |
| Cc1cc(-c2ccc(C(=O)[C@@H]3CCCC[C@H]3C(=O)Nc3cnn4c3C(=O)NCC4)cc2)n[nH]1 |  | human, non-Japanese | oral, 180 mg multiple doses, day 10, geometric mean |  | 1240 nM |
| CC1(C)C=Cc2c(ccc3c2OC[C@@H](c2ccc(O)cc2O)C3)O1 |  | human, plasma | oral, single dose, licorice supplement 1% compound |  | ≤ 8 nM |
| O=C(c1cc(Cc2n[nH]c(=O)c3ccccc23)ccc1F)N1CCN(C(=O)C2CC2)CC1 |  | human | oral, 400 mg twice daily, multiple dose, pooled trials |  | 6250 ng/mL |

For quick reference, copied from above:
| SMILES | test | system | setting | how to read | Cmax |
| --- | --- | --- | --- | --- | --- |
| Cc1c(C)c2c(c(C)c1O)CCC(C)(COc1ccc(CC3SC(=O)NC3=O)cc1)O2 (centres unmarked) |  | human, plasma | oral, 400 mg single dose |  | 3000 nM |
| CCCCC[C@H](O)/C=C/[C@@H]1[C@H]2C/C(=C/CCCC(=O)O)O[C@H]2C[C@H]1O |  | human, plasma | concentration not given, total plasma concentration |  | 0.99 nM |
| O=C(CCCCCCC(=O)Nc1ccccc1)NO |  | human | oral, 400 mg/day |  | 1000 to 1500 nM |
| Cn1c(=O)c2c(ncn2C)n(C)c1=O |  | human, plasma | oral, 315 to 530 mg/day |  | 52000 nM |
